Results of several laboratories.
Lines come from different studies, so protocols differ.
Target: Serine/threonine-protein kinase Chk1 (CHEK1, Homo sapiens, UniProt O14757)
Sequence (O14757 1-476, as in one of the studies): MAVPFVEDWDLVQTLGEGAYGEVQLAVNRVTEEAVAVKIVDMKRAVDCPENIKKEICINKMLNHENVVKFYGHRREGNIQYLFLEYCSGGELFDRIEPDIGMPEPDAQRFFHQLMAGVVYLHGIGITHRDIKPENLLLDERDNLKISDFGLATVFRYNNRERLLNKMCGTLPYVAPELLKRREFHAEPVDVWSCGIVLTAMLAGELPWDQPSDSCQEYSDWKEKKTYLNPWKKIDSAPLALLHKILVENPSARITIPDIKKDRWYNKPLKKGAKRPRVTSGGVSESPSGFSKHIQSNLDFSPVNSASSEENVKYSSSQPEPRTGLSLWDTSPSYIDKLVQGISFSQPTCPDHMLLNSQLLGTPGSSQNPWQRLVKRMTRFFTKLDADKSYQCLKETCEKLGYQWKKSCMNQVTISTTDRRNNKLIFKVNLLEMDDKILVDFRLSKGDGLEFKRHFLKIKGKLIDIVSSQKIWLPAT

SMILES	test	setting	scale	endpoint	value
Cc1cc(Nc2cc(N3CCN(C)CC3)nc(Sc3ccc(NC(=O)C4CC4)cc3)n2)[nH]n1	kinase activity, KinaseProfiler	0.03 µM, species human	baseline: control	remaining activity	88%
C=CC(=O)N1CCC(COCC(=O)N2CCN(c3nc(-c4cnc(N)nc4C(F)F)nc(N4CCOC[C@@H]4C)n3)CC2)CC1	KINOMEscan	1 µM	baseline: DMSO control	remaining binding	96%
Cc1[nH]c(/C=C2\C(=O)Nc3ccc(F)cc32)c(C)c1C(=O)N[C@H]1CCN(C(=O)N(C)C)C1	kinase activity, inhibitor	1 µM	baseline: no-compound control	remaining activity	78%
CCCOc1ccc(OC)c(F)c1C(=O)c1ccc(C(=O)N[C@@H]2CNC[C@H]2NC(=O)c2ccc3[nH]ncc3c2)cc1	enzyme activity	10 µM		remaining activity	65%
C=CC(=O)N1CCC(C(=O)NCC(=O)N2CCN(c3nc(-c4cnc(N)nc4C(F)F)nc(N4CCOCC4)n3)CC2)CC1	KINOMEscan	1 µM		remaining binding	88%
C[C@@H](c1ccc(-n2cnc3c(N)ncnc32)cc1)N1CCc2nn(C)c(Cc3ccccc3)c2C1=O	KINOMEscan	0.1 µM	baseline: DMSO control	remaining binding	89%
CCN(CC)c1ccc(C2=NNC(=O)CC2C)cc1[N+](=O)[O-] (centres unmarked)	enzyme activity, inhibitor	10 µM	baseline: vehicle	remaining activity	104%
C1=C/COCc2cc(ccc2OCCN2CCCC2)Nc2nccc(n2)-c2cccc(c2)COC/1		concentration not given		percent of control	100%
COc1cc(F)ccc1-c1ncnc(Nc2cccc(C[S@](C)(=N)=O)c2)n1	kinase activity	10 µM, added: 10 µM ATP		remaining activity	95%
O=C1NC(=O)/C(=C/c2ccc(-c3ccc(F)cc3O)o2)S1	enzyme activity	10 µM		remaining activity	87%
O=C(NC1CCC1)c1ccc2nc(-c3cccc(NS(=O)(=O)NCCN4CCCCC4)c3)cn2c1	enzyme activity	10 µM		remaining activity	100%
